Experimental data pooled from the literature.
Parts stem from different laboratories: compare values within a part only. Changes are numbered by the printed parent chain.

Block 1
Target: RNA binding protein fox-1 homolog 2, RRM domain, GST-SBP tag (RBFOX2, Homo sapiens, UniProt O43251-10, residues 100-194)
Technique: RNA Bind-n-Seq
Form: RNA
Sample: in vitro
Concentration: 365 nM
Notes: natural RNA segment, single round, ends assumed
Reference: no-protein control
Direction: higher = stronger binding
Shared flanks, not repeated: GGGAGUUCUACAGUCCGACGAUC … UGGAAUUCUCGGGUGCCAA
Residues (chain): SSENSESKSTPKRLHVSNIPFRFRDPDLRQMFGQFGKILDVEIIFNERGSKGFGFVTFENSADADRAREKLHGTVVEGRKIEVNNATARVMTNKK
| Strand | RBNS enrichment (R) |
| --- | --- |
| CCUCUGGGAGCUGGAGAAUCGCUCUGGUGGAUGGGUGUACAGAUUUGUAUAUAAUGUCAUUUUUACGGAAACCCUUUCGGCGUGCAUAAGGAAUCACUGUGUACAAACUG | 0.31 |
| UUAGUUACAUGCACAGAUGCAAUAUUUUCUUCAAAAAUAUAACUCUGUACAAACUUUGGGCCCGAUUCAUAAGAAAGAAGUUUGCUAUUAACACGGGAUUUUAAAAAAUA | 0.389 |
| UUGUGAUCUGUUGUAAUAUCAGUUACAGUGGCAGUAUUGAGAAUAAGAAAUAGUUUAACAGGAAAAAACGUUUAAGCACAAACAUUUUUAAGAUCUUAUGUUUUAAGUGG | 0.494 |
| UAGCCCUCUUGAUUCUCACCUGAUAGGGCAACAUCAAAGCUUGGUGUGGGUGUGGGUGCCAGCUCCAAGUUGGCUGAGCCUUUUUCCAGGUUCUACCCGGGCGCCUCUGU | 0.239 |
| UGGGGUGGGAGUUUUGCUCUCUGUCAGGUGUGAUAAAAUGUUGAACCCUCCCCACCACCACUUUUUUUUUUUUAAACCAGGGAUGUCUGUUGAAAUAAAACAUUCAGUCU | 0.497 |
| CUCUAGGGAAGGUUUGUGCUGGCCUCAGGAGACUGUCUCAUGAGCAGGGAAGUGUUGUGGCCGGCUGGACUGUGCCUGCUUUAGAGUAGACAGAGAGGGACGUGGGCAUG | 0.549 |
| AUACAAGUCGUGCAGAGCAUGAAGCAGCUUACCUAACUCUUAAACUAUCCUAAGCAAUGUGUGCUUGCCUGUUAGUGAGGGUGUAGGUUGAGCCCAAGUGGUGGAGUCCU | 2.51 |
| UACCUAACCCUUUCUUAUUUGUAUUUGUUUUAGUAUUGUGAAGUUGUGUUAAAUAGUACUAGCUAGAAAUACAAAUUUCUGGUUAUCAUUUCUCUUCCCUGUGGCACUUG | 0.448 |

Block 2
Target: CCNA1, cyclin fold, Cln2 fusion (human)
Technique: yeast growth competition, sequencing
Sample: yeast
Notes: strong parent motif
Reference: not given
Direction: higher = stronger binding
Parent: E2F1 docking peptide (human); PPVKRRLDFETDH
| Variant | normalised enrichment score |
| --- | --- |
| PPVKRRLDFPTDH [E10P] | 1.3 |
| PPVKRRPDFETDH [L7P] | -0.0909 |
| PPVKIRLDFETDH [R5I] | 0.279 |
| PPVKRRLDFEHDH [T11H] | 1.74 |
| PPVKRRLDQETDH [F9Q] | 0.358 |
| PPVKRRLDFECDH [T11C] | 1.72 |
| PCVKRRLDFETDH [P2C] | 1.99 |
| PPVKRRLDFWTDH [E10W] | 1.15 |
| PPVKRRLDFERDH [T11R] | 1.43 |
| PPAKRRLDFETDH [V3A] | 1.72 |
| PPVKRRLDFEDDH [T11D] | 1.83 |
| PPVLRRLDFETDH [K4L] | 0.329 |
| PFVKRRLDFETDH [P2F] | 1.39 |
| PLVKRRLDFETDH [P2L] | 1.61 |
| PPIKRRLDFETDH [V3I] | 1.19 |
| PPVKRRLDFEFDH [T11F] | 2.03 |
| PMVKRRLDFETDH [P2M] | 1.85 |
| PPVKRELDFETDH [R6E] | 1.09 |
| PPVKRRGDFETDH [L7G] | -0.411 |
| PPVKRRLVFETDH [D8V] | 1.43 |
| PPVKRRLDYETDH [F9Y] | 0.923 |
| PPVKRRQDFETDH [L7Q] | 0.201 |
| PPVKMRLDFETDH [R5M] | 0.415 |
| PPVKRRLDFATDH [E10A] | 1.61 |

Block 3
Target: Interferon regulatory factor 5, full length, phosphomimetic (IRF5, Homo sapiens, UniProt Q13568-2, residues 1-514, K96S/S451D/S453D/S456D/S462D)
Technique: protein-binding microarray
Form: double-stranded DNA, one strand shown
Sample: in vitro
Concentration: 250 nM
Notes: 60-bp whole probe
Added: salmon DNA 0.4 mg/ml
Reference: random background probes
Direction: higher = stronger binding
Shared flanks, not repeated: GCCTAGCAC … GTCTTGATTCGCTTGACGCTGCTG
| Strand | log fluorescence |
| --- | --- |
| GACGAACTGGGACTGGGGACGTGCTAG | -0.52 z-score |
| TTAGGTTTCGGGTATCGGTTAGTGCTA | 9.18 z-score |
| TCAAGTGTCAATAATGACACTGTGCTA | 0.129 z-score |
| GACGATCTCAGTCACGAGACGTGCTAG | -0.123 z-score |
| GACGATCTCAGTTCCGAGACGTGCTAG | -0.128 z-score |
| TTAGGACTGGGGTTTCGGTAAGTGCTA | 5.16 z-score |
| TAAATTTTGATGGAGAGTGCGTGCTAG | 0.249 z-score |
| TCAGGACTGACTCTTCAGACTGTGCTA | -0.901 z-score |
| TGTGTTTTCATTTTATGACAGTGCTAG | 3.01 z-score |
| TTAGAAGTGGGGACTGGATTAGTGCTA | -0.416 z-score |
| TTAGATATCAGTATCGAATAGTGCTAG | 3.8 z-score |
| TTATGACTGCTACTGCTTTAGTGCTAG | -0.0264 z-score |
| GACGATTTCAGTCTCCAGACGTGCTAG | 0.85 z-score |
| TTAGGACTGGGGTTTCGGCTAGTGCTA | 2.09 z-score |
| ATTTCTTTCTAATTCAAAGTGTGCTAG | 2.41 z-score |
| TCAAGAATGTCCTTTCTCACTGTGCTA | 0.733 z-score |
| TCACTTTCCTTCTTGATACTGTGCTAG | 2.78 z-score |
| GACGGTTTCCTCCTCCTGACGTGCTAG | 0.427 z-score |
| GACGGACTGCTAATCCTGACGTGCTAG | -0.491 z-score |

Block 4
Target: ABI1, truncated, D143A, DHFR fusion (Arabidopsis thaliana)
Technique: DHFR PCA, deep sequencing
Sample: yeast
Notes: methotrexate growth selection, single substitutions
Added: (+)-ABA 710 µM
Reference: wild-type fitted maximum
Direction: higher = stronger binding
Parent: PYL1, truncated, DHFR fusion (Arabidopsis thaliana); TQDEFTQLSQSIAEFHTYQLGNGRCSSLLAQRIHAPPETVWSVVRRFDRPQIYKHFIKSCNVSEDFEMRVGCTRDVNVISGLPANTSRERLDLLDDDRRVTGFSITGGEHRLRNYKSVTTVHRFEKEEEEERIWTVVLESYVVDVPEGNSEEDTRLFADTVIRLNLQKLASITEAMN
| Variant | relative binding score |
| --- | --- |
| G81N | 58.9% |
| S150R | 85.5% |
| I79T | 105% |
| E147T | 99.4% |
| I133E | 113% |
| C25K | 62% |
| Q10T | 103% |
| P37H | 88.2% |
| E64F | 95.8% |
| H110L | 26.5% |
| S59V | 97.1% |
| F5V | 105% |
| S26E | 86.1% |
| L93T | 102% |
| T173L | 92% |
| R49F | 88.5% |
| T86I | 97.5% |
| Q31T | 73.4% |
